Values quoted from earlier work as cited in several papers.

| Compound | conditions | logD |
| --- | --- | --- |
| Cc1cc(Nc2ccc(S(F)(F)(F)(F)F)cc2)n2ncnc2n1 |  | 3 |
| CCOC(=O)C1=C(C)NC(C)=C(C(=O)OC)C1c1cccc([N+](=O)[O-])c1 (stereo not shown) |  | 3.81 |
| O=C(N1CCN(C(c2ccccc2)c2ccccc2)CC1)n1nnc2ccccc21 |  | 3.6 |
| Cc1ccc(O)c([C@H](CCN(C(C)C)C(C)C)c2ccccc2)c1 |  | 2.38 |
| O=C(O)c1ccc(O)cc1 | pH 7.4 | -1.35 |
| COc1ccc([C@@H]2Sc3ccccc3N(CCN(C)C)C(=O)[C@@H]2OC(C)=O)cc1 |  | 2.22 |
| CCOC(=O)c1ccc(O)cc1 | pH 7.4 | 2.45 |
| O=C(OC(C(F)(F)F)C(F)(F)F)N1CCN(Cc2cccc(Oc3ccccc3)c2)CC1 |  | 5 |
| CCCCCCCCOC(=O)c1ccc(O)cc1 | pH 7.4 | 3.96 |
| C[C@@H]1C[C@H]2[C@@H]3CCC4=CC(=O)C=C[C@]4(C)[C@@]3(F)[C@@H](O)C[C@]2(C)[C@@]1(O)C(=O)CO | pH 2 | 1.9 |
